Measured values pooled from the literature.
Lines come from different studies, so protocols differ. ± gives the spread as reported.

Cn1cncc1-c1c(F)cncc1NC(=O)c1c(N)nn2cc(F)cnc12 gave an EC50 of 0.736 µg/mL (inhibition of erythrocyte progenitor production, model, semi-mechanistic PopPK-PD, refers to: reticulocyte count; human, plasma).
CC(C)C[C@@H](NC(=O)[C@H](C)NC(=O)CNC(=O)[C@@H](NC=O)C(C)C)C(=O)N[C@@H](C)C(=O)N[C@@H](C(=O)N[C@H](C(=O)N[C@@H](C(=O)N[C@@H](Cc1c[nH]c2ccccc12)C(=O)N[C@H](CC(C)C)C(=O)N[C@@H](Cc1ccc2cc[nH]c2c1)C(=O)N[C@H](CC(C)C)C(=O)N[C@@H](Cc1c[nH]c2ccccc12)C(=O)N[C@H](CC(C)C)C(=O)N[C@@H](Cc1c[nH]c2ccccc12)C(=O)NCCO)C(C)C)C(C)C)C(C)C gave an EC50 of 34.7 ± 9.9 nM (H+/Na+ transport, pyranine pH-gradient; EYPC/cholesterol LUVs 2:1).
CC1(C)CCC(c2ccc(Cl)cc2)=C(CN2CCN(c3ccc(C(=O)NS(=O)(=O)c4ccc(N[C@H](CCN5CCOCC5)CSc5ccccc5)c(S(=O)(=O)C(F)(F)F)c4)cc3)CC2)C1 gave an EC50 of 21 nM (cell kill, PI exclusion flow cytometry; CD3+ nodal neoplastic T cells, human; 24 h).
CC(C)(O)c1cn(-c2ccc(-c3cccc(S(C)(=O)=O)c3)cc2)c(C(C)(C)c2ccccc2Cl)n1 has an EC50 of 140 nM (gene induction, agonist, refers to: ABCG1; Macaca fascicularis, whole blood).
CC1(C)CCC(CN2CCN(c3ccc(C(=O)NS(=O)(=O)c4ccc(NCC5CCOCC5)c([N+](=O)[O-])c4)c(Oc4cnc5[nH]ccc5c4)c3)CC2)=C(c2ccc(Cl)cc2)C1 gave an EC50 of 63 nM (cell kill, PI exclusion flow cytometry; normal CD3+ T lymphocytes, human, lymph node; 24 h).
C[C@@H](NC(=O)N1C(=O)[C@H](Cc2ccnc(N)c2)[C@H]1C(=O)O)C1CCCCC1 gave an EC50 of 8.94 µg/mL (aPTT prolongation, Emax PK/PD model; human, plasma; relative to: baseline).
With CC(C)C[C@@H](NC(=O)[C@H](C)NC(=O)CNC(=O)[C@@H](NC=O)C(C)C)C(=O)N[C@@H](C)C(=O)N[C@@H](C(=O)N[C@H](C(=O)N[C@@H](C(=O)N[C@@H](Cc1c[nH]c2ccccc12)C(=O)N[C@H](CC(C)C)C(=O)N[C@@H](Cc1cccc2[nH]ccc12)C(=O)N[C@H](CC(C)C)C(=O)N[C@@H](Cc1c[nH]c2ccccc12)C(=O)N[C@H](CC(C)C)C(=O)N[C@@H](Cc1c[nH]c2ccccc12)C(=O)NCCO)C(C)C)C(C)C)C(C)C the EC50 was 6.01 ± 2.74 nM (H+/Na+ transport, pyranine pH-gradient; EYPC/EYPG LUVs 19:1).
For Cc1ccc(C(=O)Nc2ccnc(S(N)(=O)=O)c2)c(N2CCCC(F)(F)CC2)n1, the EC50 was 146 nM (capsaicin-induced flare; rhesus macaque, plasma; together with: capsaicin).
CC(C)C[C@@H](NC(=O)[C@H](C)NC(=O)CNC(=O)[C@@H](NC=O)C(C)C)C(=O)N[C@@H](C)C(=O)N[C@@H](C(=O)N[C@H](C(=O)N[C@@H](C(=O)N[C@@H](Cc1c[nH]c2ccccc12)C(=O)N[C@H](CC(C)C)C(=O)N[C@@H](Cc1cccc2cc[nH]c12)C(=O)N[C@H](CC(C)C)C(=O)N[C@@H](Cc1c[nH]c2ccccc12)C(=O)N[C@H](CC(C)C)C(=O)N[C@@H](Cc1c[nH]c2ccccc12)C(=O)NCCO)C(C)C)C(C)C)C(C)C gave an EC50 of 3.51 ± 1.6 nM (H+/Na+ transport, pyranine pH-gradient; EYPC/EYPG LUVs 19:1).
The EC50 of CC[C@@H]1CN(C(=O)NCC(F)(F)F)C[C@@H]1c1cnc2cnc3[nH]ccc3n12 is reported as 0.0262 µg/mL (endoscopic response; human, moderate-to-severe Crohn's disease; week 12/16, 50% response, average concentration).

A few entries again:
CC(C)C[C@@H](NC(=O)[C@H](C)NC(=O)CNC(=O)[C@@H](NC=O)C(C)C)C(=O)N[C@@H](C)C(=O)N[C@@H](C(=O)N[C@H](C(=O)N[C@@H](C(=O)N[C@@H](Cc1c[nH]c2ccccc12)C(=O)N[C@H](CC(C)C)C(=O)N[C@@H](Cc1cccc2cc[nH]c12)C(=O)N[C@H](CC(C)C)C(=O)N[C@@H](Cc1c[nH]c2ccccc12)C(=O)N[C@H](CC(C)C)C(=O)N[C@@H](Cc1c[nH]c2ccccc12)C(=O)NCCO)C(C)C)C(C)C)C(C)C gave an EC50 of 3.51 ± 1.6 nM (H+/Na+ transport, pyranine pH-gradient; EYPC/EYPG LUVs 19:1).
